Measured values pooled from the literature.
Parts stem from different laboratories: compare values within a part only.

Sample 1
Target: RNA binding protein fox-1 homolog 2, RRM domain, GST-SBP tag (RBFOX2, Homo sapiens, UniProt O43251-10, residues 100-194)
Method: RNA Bind-n-Seq
Form: RNA
Medium: in vitro
Tested at: 365 nM
Notes: natural RNA segment, single round, ends assumed
Relative to: no-protein control
Reading: higher = stronger binding
Quantity: RBNS enrichment (R)
Target sequence (chain): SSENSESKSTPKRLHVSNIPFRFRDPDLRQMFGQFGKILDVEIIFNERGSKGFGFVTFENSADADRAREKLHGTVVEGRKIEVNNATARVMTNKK
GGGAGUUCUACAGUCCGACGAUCGUGAUUGCUUUUAUUACAUUAGUUAAGAUGUCUGAGAGACCAUCUCCUAUCUUUUAUUUCAUUCAUAUCCUCCGCCCUUUUUGUCCUAGAGUGAGAGUUUGGAAGGUGUCUGGAAUUCUCGGGUGCCAA: 0.543
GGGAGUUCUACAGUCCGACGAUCUAUUUUGUUUGUUUCUCAAGUGACUUGUGGACUUGUGCUGUAUAAACUGUAUUAAAAAGGCUCUGUUUUUAAAGAUCAAUUGUCAUUCCUGUGGGGACAGUGGCUACUGAUGGAAUUCUCGGGUGCCAA: 0.789
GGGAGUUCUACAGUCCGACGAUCGGGGCGCCUGCCUCCCUGCUCCUCUGUCCUCGCACAGCGAACCUGGGCUCCUGCCCAGGACAGGCACCAGGGUCAUGGCCUGGGACCUGGACACUGGCCCCUCCACCCUCUGGAAUUCUCGGGUGCCAA: 0.462
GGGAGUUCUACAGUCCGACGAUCUAGGUUCCUGCACUUUUUGGUAACUUUAUGUCUAGCAAAUAUUUUAUGCCAAGAAAAGCAUACUAUAAAGCAAAUAUCUAUUAUUCUCCUAAACGAAUGCCUAGCAUAGAUGGAAUUCUCGGGUGCCAA: 1.23
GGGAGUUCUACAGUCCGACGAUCGAAUGAGUUCUCUGUUGUGCCCCCACUGCAGCUGUCUCUUGUGCUCUCCAGGUAUGCAGCUCAUAUGCUUGUGUCUGGACUUCCAUUUUCUUACUUCAGGGAGGGGACAGUGGAAUUCUCGGGUGCCAA: 1.56
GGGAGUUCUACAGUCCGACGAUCCAUUCCAGCCAGUAAUUUAUAGCCUUUCCCCUAAAUCAAGAAUGAGUUUAAAAUUAUAGUCUGUCUUUUAUCUUAACAGUUCUGAAUGCUGUCCUCAAAGUAUAUAAUGUUGGAAUUCUCGGGUGCCAA: 0.379
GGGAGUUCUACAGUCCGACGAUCGGCACCAGGCACUUGACCUUGGGGGGUCUACAAGCAAGAUGAGUUCUGAUAGGCACAGUCCAGCCCAGUCUAGCACCACCUUUUAUGGUAGUUGAUCACUCUGAGGAGGUUGGAAUUCUCGGGUGCCAA: 0.484
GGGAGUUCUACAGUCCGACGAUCCCCGCCCAGGCUGGCCAGCCCCACAGCCCACGUCCUGUCAGUGCCGCCGCCUCGCCCACCGCAUGCCCCCUCGUGCCAGUCGCGCUGCCUGUGUGGUGUCGCGCCUUCUCUGGAAUUCUCGGGUGCCAA: 3.75
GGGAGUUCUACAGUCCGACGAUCAGUAACAGACUUAGGUACUGCUAAGCAGUUAUUAACACAAUAUUCCUUAGUUUUCAUAUGUUGGUUAUUCAUAUGUCUAUUUAUAUGUAUAUUUAUUUUUAUGUAUGUUAUGGAAUUCUCGGGUGCCAA: 0.608
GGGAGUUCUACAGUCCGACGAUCAUUUUGAUAUUAACACCGGCAUAAAUCUAUUUUUGCUACCAGAUGAUAGCUAUUUUCAUUUGCUCUAUUUUCCUCUGCAUUGUACUAAUCUGUUACUCAGUGUUAGUCUUUGGAAUUCUCGGGUGCCAA: 0.73
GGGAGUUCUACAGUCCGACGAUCUGUCAGCGGGCGCCACAGCGGAUCAGCGGUUCCGUGUUCACUUUUGUUGUACAAUAUAUGACACAGUGCACAUUGAAUACCAACAAGGUUGCAACGUUUACAUUAUAGCCUGGAAUUCUCGGGUGCCAA: 0.201
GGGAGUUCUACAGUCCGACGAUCGAGGCACAGCUUAGAUGUUUUGUACACCUGGUCUUUUCUAGAAAUCCCUGCUUGGAGCUGCAGAAGGGUUGCCUUCUGUAGGUCGGAGGAAUGGAGGCUUACUAACCAGGUGGAAUUCUCGGGUGCCAA: 0.281

Sample 2
Target: Interferon regulatory factor 5, full length, phosphomimetic (IRF5, Homo sapiens, UniProt Q13568-2, residues 1-514, S451D/S453D/S456D/S462D)
Method: protein-binding microarray
Form: double-stranded DNA, one strand shown
Medium: in vitro
Tested at: 940 nM top
Notes: 60-bp whole probe
Together with: salmon DNA 0.4 mg/ml
Relative to: random background probes
Reading: higher = stronger binding
Quantity: fitted relative affinity
All sequences stand within: GCCTAGCAC … GTCTTGATTCGCTTGACGCTGCTG
TTAGGTTTCGGGTTCCGGTTAGTGCTA: 10.2 z-score
TTAGCTCTCGGTATCGGTTAGTGCTAG: 7.39 z-score
TTAGGAATGCTACTGCTTTAGTGCTAG: -0.428 z-score
TTAGGTATCGTTTTCCTTTAGTGCTAG: 6.47 z-score
TGCTCTCCGGGGTCTGTGAGGGTGCTA: 0.15 z-score
GACGATTCGAGTTTCGAGACGTGCTAG: 3.4 z-score
GTAGGTATCGACTTTCGGTTAGTGCTA: 5.95 z-score
GACGGTTTAGGTTCCGGGACGTGCTAG: 0.706 z-score
TCATATTTTTTTCTAATACTGTGCTAG: 1.67 z-score
GACGGACTTGGTCTCGGGACGTGCTAG: 0.342 z-score
GACGGATTGGGTTTCGGGACGTGCTAG: 3.54 z-score
GACGGTCTCCCTTTCCTGACGTGCTAG: 0.597 z-score
CTTCCACTTAGGGTGGCTGGGTGCTAG: -0.159 z-score
TTAGCTCTCGGTTTCGGTTAGTGCTAG: 10.3 z-score
GTAGATCTCAGACTGGATTAGTGCTAG: -0.187 z-score
TCAACTTTTATTTTCAGACTGTGCTAG: 0.858 z-score
GAGGGACTGGACTATCGGGACGTGCTA: -0.525 z-score
TTAGGGATCGGTATCGGTTAGTGCTAG: 4.69 z-score
TCTCCTCTAGGTTCTCTGAGAGTGCTA: 1.3 z-score
TTAGATACCAGACTGGATTAGTGCTAG: -0.00585 z-score
TTAGGTTTCGGTATCGGGTAGTGCTAG: 15 z-score
AGAATTTCCACTTTGACTTAGTGCTAG: 0.509 z-score
GACGAACTGCTTTTCCTGACGTGCTAG: -0.00276 z-score
ACCACTCCAGTTCTGGGAAAGTGCTAG: -0.0224 z-score
CTCTGTCTGGGATGTAATTCCGTGCTA: 0.242 z-score

Sample 3
Target: Sal-like protein 4, full length isoform B (SALL4, Homo sapiens, UniProt Q9UJQ4-2, residues 1-616)
Method: universal PBM
Form: double-stranded DNA, one strand shown
Medium: in vitro
Tested at: not given
Notes: 8-mer, flanks averaged, mean of replicates
Reading: higher = stronger binding
Quantity: E-score
Construct (chain): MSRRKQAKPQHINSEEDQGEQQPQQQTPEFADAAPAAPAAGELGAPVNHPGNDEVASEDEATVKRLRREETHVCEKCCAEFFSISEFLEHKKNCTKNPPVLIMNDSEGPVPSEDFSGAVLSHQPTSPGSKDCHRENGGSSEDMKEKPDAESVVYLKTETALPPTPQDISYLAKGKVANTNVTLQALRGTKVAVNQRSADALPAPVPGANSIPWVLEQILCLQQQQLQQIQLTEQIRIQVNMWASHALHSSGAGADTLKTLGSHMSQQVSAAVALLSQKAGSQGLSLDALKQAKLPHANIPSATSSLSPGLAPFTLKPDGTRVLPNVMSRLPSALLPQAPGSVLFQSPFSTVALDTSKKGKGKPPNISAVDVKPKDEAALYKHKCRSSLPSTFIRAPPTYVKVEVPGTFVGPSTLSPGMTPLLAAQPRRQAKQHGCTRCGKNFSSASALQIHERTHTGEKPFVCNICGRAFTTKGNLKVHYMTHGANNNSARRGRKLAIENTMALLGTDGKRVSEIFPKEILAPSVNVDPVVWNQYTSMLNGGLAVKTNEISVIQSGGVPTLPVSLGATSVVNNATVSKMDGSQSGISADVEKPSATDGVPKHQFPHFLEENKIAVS
ATGCTTGA: 0.112
ATTTCATA: 0.383
CGCATTTC: -0.0819
CGTCCGAC: -0.287
ACTGATGC: -0.0819
GCTTTTTA: 0.194
ACGCGTAG: -0.123
CATGCCAG: -0.248
ATTTTTCC: 0.254
ATGTCAAC: 0.199
GTCGAAAC: -0.088
GATCATCC: -0.0788
CCTCCTAC: -0.249
ACAGTTTA: 0.147
ATAAAAAT: 0.408
AGCGGAAC: -0.243
CACCAGAC: -0.254
ATGTTAGC: 0.0959
CCAGGTGA: -0.206
CTGGGCCC: -0.359
AGGCTGAA: -0.0732
ACCAGTTG: -0.114

Sample 4
Target: Ras GTPase-activating protein-binding protein 1, C-terminal RGG region (G3BP1, Homo sapiens, UniProt Q13283)
Sequence of UniProt Q13283 (whole entry, looked up): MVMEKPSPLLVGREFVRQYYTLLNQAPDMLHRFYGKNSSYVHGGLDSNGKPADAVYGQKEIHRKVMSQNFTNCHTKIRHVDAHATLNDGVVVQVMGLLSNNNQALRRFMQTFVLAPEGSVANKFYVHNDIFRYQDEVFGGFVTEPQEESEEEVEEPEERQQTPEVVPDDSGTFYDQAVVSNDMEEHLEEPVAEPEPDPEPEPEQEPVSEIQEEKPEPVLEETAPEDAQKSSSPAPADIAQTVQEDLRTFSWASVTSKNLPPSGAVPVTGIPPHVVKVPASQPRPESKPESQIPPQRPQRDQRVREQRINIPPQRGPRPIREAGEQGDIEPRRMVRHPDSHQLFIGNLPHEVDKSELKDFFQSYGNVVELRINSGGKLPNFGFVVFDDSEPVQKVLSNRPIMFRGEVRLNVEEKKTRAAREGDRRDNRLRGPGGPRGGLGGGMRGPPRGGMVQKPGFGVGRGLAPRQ
Method: RNA Bind-n-Seq
Form: RNA
Medium: in vitro
Tested at: 1 µM
Notes: whole 134-nt RNA, ends assumed
Together with: 150 mM KCl
Relative to: input library
Reading: higher = stronger binding
Quantity: log2 enrichment
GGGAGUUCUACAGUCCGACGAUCUCCUGUGCUACACAUCGUAUGUACCGAAUCGGGGAAAAAAGGGAAAAAAGGGAAAAAAGGAAAGUAUUAUGUUACGCCGUUCGGAUCUGCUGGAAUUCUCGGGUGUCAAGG: -1.08
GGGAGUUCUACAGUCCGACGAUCUGAACAGCUCUGCGCUUUUUGUUACUGUGGGGAAAAAAGUUCCUUAGGACAAGGAGACUUAAAACAAUUCAGAAUAACGCCUGGAUUUAUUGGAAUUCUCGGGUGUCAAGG: -1.59
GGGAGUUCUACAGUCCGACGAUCCAAGUCCUGUGCUACACAUCGUAUGUACCGAAUCGGGAGGGAAAAAAAGGGAGGGAAAGUAUUAUGUUACGCCGUUCGGAUCUGCACUUCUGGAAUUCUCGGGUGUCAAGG: 1.05
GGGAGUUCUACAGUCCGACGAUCCCUCAAGUCCUGUGCUACACAUCGUAUGUACCGAAUCGGGGAGGAGGGAGGGAAAGUAUUAUGUUACGCCGUUCGGAUCUGCACUUCCAGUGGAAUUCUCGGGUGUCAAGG: 0.597
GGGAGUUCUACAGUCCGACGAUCUACAGGAGCUUCCUGGGACUGACCUGCCUGAUGCAAAUUUCUACUCGGACGGAAGACUUCAUCAUUGACACCCUCGAGCUUCGAAGUGACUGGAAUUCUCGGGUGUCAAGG: 0.285
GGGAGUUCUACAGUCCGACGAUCAAGUCCUGUGCUACACAUCGUAUGUACCGAAUCGGAAAAGGGGAAAAGGGAAAAGGAAAGUAUUAUGUUACGCCGUUCGGAUCUGCACUUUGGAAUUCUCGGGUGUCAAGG: -1.36
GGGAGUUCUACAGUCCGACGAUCCAAGUCCUGUGCUACACAUCGUAUGUACCGAAUCAAAUUUAAAUUUAAAUUUAAAAAAGUAUUAUGUUACGCCGUUCGGAUCUGCACUUCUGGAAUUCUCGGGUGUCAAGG: -1.97
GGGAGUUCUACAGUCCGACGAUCUCAAGUCCUGUGCUACACAUCGUAUGUACCGAAUCGGUUGGGUUGGGGUUGGGGAAAGUAUUAUGUUACGCCGUUCGGAUCUGCACUUCCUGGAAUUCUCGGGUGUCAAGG: 0.549
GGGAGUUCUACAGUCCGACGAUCCCUGUGCUACACAUCGUAUGUACCGAAUCGGGCCCCCCGGGGCCCCCCGGGGCCCCCCGGAAAGUAUUAUGUUACGCCGUUCGGAUCUGCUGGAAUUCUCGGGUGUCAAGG: -1.92
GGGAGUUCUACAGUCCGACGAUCAGUCCUGUGCUACACAUCGUAUGUACCGAAUCGGGGUUUUUGGUUUUUGGGUUUUUGGAAAGUAUUAUGUUACGCCGUUCGGAUCUGCACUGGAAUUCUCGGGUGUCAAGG: -1.23

Some of these lines once more (sample 3):
ATAAAAAT: 0.408
ATTTCATA: 0.383
CTGGGCCC: -0.359
ACGCGTAG: -0.123
ATGTCAAC: 0.199
CACCAGAC: -0.254
ATGCTTGA: 0.112
ACTGATGC: -0.0819
